Assay results collected from several papers.
Each numbered part is a random draw from the data of one study; scales do not carry over between parts.

Set 1
Target: Sox, HMG box (Pigoraptor chileana)
Technique: Spec-seq
Molecule type: double-stranded DNA, one strand shown
Sample: in vitro
Concentration: not given
Setting: whole probe, mean of replicates
Baseline: not given
Direction: lower = stronger binding
Constant ends, left off below: GAGTCGTCTCGTCAGCAC … CCGTAGAGCACTCAGGTC
Construct (chain): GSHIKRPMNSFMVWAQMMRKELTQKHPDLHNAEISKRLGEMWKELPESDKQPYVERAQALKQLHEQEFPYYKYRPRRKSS
Strand	relative binding energy [ln ratio]
CATCCCC	1.03
GGGCGTT	1.7
CATACTC	0.426
CAACGTT	0.913
CATTTTA	0.173

Set 2
Target: Ras GTPase-activating protein-binding protein 1, full length (G3BP1, Homo sapiens, UniProt Q13283)
UniProt Q13283, sequence (whole entry, looked up): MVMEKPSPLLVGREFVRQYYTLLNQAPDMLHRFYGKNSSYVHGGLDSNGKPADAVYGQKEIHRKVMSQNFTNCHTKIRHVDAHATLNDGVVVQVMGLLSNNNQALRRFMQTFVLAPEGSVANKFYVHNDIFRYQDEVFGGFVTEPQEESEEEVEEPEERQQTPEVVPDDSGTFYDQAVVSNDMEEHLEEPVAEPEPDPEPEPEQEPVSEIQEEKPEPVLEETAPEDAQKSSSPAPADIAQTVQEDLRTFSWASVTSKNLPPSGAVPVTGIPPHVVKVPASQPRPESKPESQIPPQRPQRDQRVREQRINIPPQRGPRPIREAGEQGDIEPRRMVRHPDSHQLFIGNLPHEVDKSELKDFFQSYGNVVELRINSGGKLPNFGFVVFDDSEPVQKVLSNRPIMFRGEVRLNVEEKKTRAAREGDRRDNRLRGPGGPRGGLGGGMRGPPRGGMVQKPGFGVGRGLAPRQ
Technique: RNA Bind-n-Seq
Molecule type: RNA
Sample: in vitro
Concentration: 200 nM
Setting: whole 134-nt RNA, ends assumed
Added: 150 mM LiCl
Baseline: input library
Direction: higher = stronger binding
All molecules: 7-deaza-guanosine replaces G
Strand	log2 enrichment
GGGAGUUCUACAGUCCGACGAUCCAAGUCCUGUGCUACACAUCGUAUGUACCGAAUCGGGGUUUGGGUUUGGUUUGGGGAAAGUAUUAUGUUACGCCGUUCGGAUCUGCACUUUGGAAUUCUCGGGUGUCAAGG	-0.296
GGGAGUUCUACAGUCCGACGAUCUAACUUUAGAGGAGGAUCUGAUGGAUAUGGCAGUGGACGUGGAUUUGGGGAUGGCUAUAAUGGGUAUGGAGGAGGACCUGGAAGUGGCAAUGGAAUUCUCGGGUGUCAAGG	-0.168
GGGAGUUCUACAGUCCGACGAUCCAAAAACAACACGCACCCACACAGACACAGAGGGAAGGGGUUGGGAUGGGGACAGGGUGCACAGCAGGGCGGGGUAGGACCCCAGCCCCUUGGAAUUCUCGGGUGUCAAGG	0.588
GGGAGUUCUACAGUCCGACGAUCACCAUGCAGGUGGGCAUCUUUGGGAAGUGAGGCAAGGGGGGGAUAGGGAGGGGGGUAACACUUUGGGAACAGGUGGUCCCAGGUCGUUUCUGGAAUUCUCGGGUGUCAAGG	0.228
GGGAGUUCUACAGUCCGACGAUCUAAAUUUAGAGGAGGAUCUGAUGGAUAUGGCAGUGGACGUGGAUUUGGGGAUGGCUAUAAUGGGUAUGGAGGAGGACCUGGAGGUGGCAAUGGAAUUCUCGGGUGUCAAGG	-0.224

Set 3
Target: Interferon regulatory factor 5, full length, phosphomimetic (IRF5, Homo sapiens, UniProt Q13568-2, residues 1-514, K96S/S451D/S453D/S456D/S462D)
Technique: protein-binding microarray
Molecule type: double-stranded DNA, one strand shown
Sample: in vitro
Concentration: 250 nM
Setting: 60-bp whole probe
Added: salmon DNA 0.4 mg/ml
Baseline: random background probes
Direction: higher = stronger binding
Constant ends, left off below: GCCTAGCAC … GTCTTGATTCGCTTGACGCTGCTG
Strand	log fluorescence [z-score]
ACCACTTTCCATTTCTGTTTGTGCTAG	3.88
GACAATTTCGGGTATCGAGACGTGCTA	7.38
CCCTTTCTCTCTGTGACACAGTGCTAG	1.84
TTAGTTTTCAGTTTCGATTAGTGCTAG	10.3
TTTGCTTTCTTTATGCACTCGTGCTAG	2.48
TTAGGTCTCCTTCTTCTTTAGTGCTAG	0.208
GACGGTTTCGGATTCGGGACGTGCTAG	4.78

Set 4
Molecule: PhoQ, residues 284 288 289 292 302 303 GASLAW
Technique: Sort-seq
Item: YFP reporter
Sample: E. coli
Setting: PhoQ-PhoP variant library
Added: 10 µM Mg2+
Baseline: high Mg2+ state
Direction: higher = stronger signaling
target	fold induction
PhoP, residues 12 14 15 18 19 LHTVL (Escherichia coli, UniProt P23836)	13.7
PhoP, residues 12 14 15 18 19 TQAML (Escherichia coli, UniProt P23836)	11.6
PhoP, residues 12 14 15 18 19 NQCAL (Escherichia coli, UniProt P23836)	4.54
